Assay results of several laboratories.
Numbered parts are unrelated; each lists some results of a single study.

Series 1
Target: Myc proto-oncogene protein, bHLH-zipper, MAX partner unstated (MYC, Homo sapiens, UniProt P01106, residues 368-449)
Chain of UniProt P01106 (368-449, looked up): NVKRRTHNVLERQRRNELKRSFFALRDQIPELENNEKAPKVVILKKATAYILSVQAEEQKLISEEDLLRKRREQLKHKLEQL
Technique: protein-binding microarray
Form: double-stranded DNA, one strand shown
Medium: in vitro
Tested at: not given
Notes: k-mer, scored over probes, only values ≥0.25
Direction: higher = stronger binding
Measurement: E-score
CATGGCGC: 0.358
CCACGACC: 0.272
AACGAGGA: 0.257
GCCCGCCC: 0.34
CGTGCCGC: 0.382
CATCCATG: 0.25
CTCGAGGC: 0.289
ACGCGTGC: 0.44
ACGCATGG: 0.466
ACATATGG: 0.312
ATGCGCAT: 0.378
ACCTCCAT: 0.256
CGTGCTAG: 0.387
CACGCGCG: 0.431
CGTGGTTA: 0.389

Series 2
Target: RNA binding protein fox-1 homolog 2, RRM domain, GST-SBP tag (RBFOX2, Homo sapiens, UniProt O43251-10, residues 100-194)
Technique: RNA Bind-n-Seq
Form: RNA
Medium: in vitro
Tested at: 365 nM
Notes: natural RNA segment, single round, ends assumed
Reference: no-protein control
Direction: higher = stronger binding
Measurement: RBNS enrichment (R)
Constant ends, left off below: GGGAGUUCUACAGUCCGACGAUC … UGGAAUUCUCGGGUGCCAA
Target sequence (chain): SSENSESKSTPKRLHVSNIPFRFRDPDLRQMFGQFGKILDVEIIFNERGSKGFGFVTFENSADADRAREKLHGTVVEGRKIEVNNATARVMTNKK
UGCCUACAGCCCUGUUACCUGAUACCUGUGCUUUAUCCCAGGGGUGGGCAGACCUCUUAACCUUAUAGAUGGUCAGUGCGACCUCUAGUGGUCUCAUGGCGUGUGGCACA: 0.454
UUUUCUCUUGACUCCUCCUUUUAGGAUGUCCAGAUGUAAAAAAAAAAAAAAAAAAAAGAAAAAAAGAAAAAAAAAAGAAAACAGCUGCAGUUCAGUACAACUGCUCUUUU: 0.852
UAUGCCACCUGUGUGUCAGGAUGCACCUGAAAGCCCUCGGCUCGGUCCUUAGACCAUCUUCCUACAUUACCUGGAAGGGAGCUGCCAUCUGUCCCUCUGCAGAGGGAUAC: 0.24
UGCUCACUUCGUUAGCAUUUCUGAGCCAGAGGCUGGCUCCCUCCCGUGGGGAUCUGGGAGCUGGCACUGUGUACACCUGUCCCUGACUGUCCACGUCUCCCGUGAUUGCC: 0.548
UUAUAGCCAGAGAAAUCACCUUAAUGCAGUCUCUUUAGUUGUCUGCUGAAGCUGUAGUUAUUAUGGGCCACUUACAUGAGGCUGAGAAGUACGUGCCGGAGCUCACACAC: 0.415
UCUCCUUUCUUUCAAGUGUCGUGAGUCGUCUUGAUUGUAUAUUGGAAAUAACUGUGUAACAAAUCGUAUUAUAAAUAUUUCAAUUAAUUUUACUCUGAAUUUGUUUAUUA: 1.06
CAAUAGCACAGAACGUCUUAAUGCCAGAGGUCACUUCAGCAUCUUCCUGCUUUGAAAACUCACGCUGGCUGCUUCACUGCCCUGAGAUUCAGUGAGACACGCAGUUUGUG: 0.478
UACCCUAGUCUCACCAAUCGUGGAUCUAACUUUGCUCCUGAGACUGGACAGACUGCAGGACAAUUCCAGACACGGACAGCAGAGGGUGUGGGUGUCUGGCCACAGUGGCA: 0.597
AUUUUCUUUCUGAUUUCUUUUACUCUGCAUACAUUUUAUAAGUUCAAGGUCAGCUGUCAAAAGGAUAAGCUGUGGGGUUAGAACAUAUUACAUUGCAACAUCCUAAAUUG: 0.824
UAAGGAAUUUCUCAUCUGACAAUGGAACAGAAAUAGAAGCAUGGCCCCCACAGGCUGGGGACCAGUGGCAACCUGCAGCUACAACACUCCUAUCUCAGCGGAAUUCUAAA: 0.26
ACUCUUCUCAGAGCUUUGGGGGUUAUGUGAAAGGCUGACUAGUUGAGGGUUUAGCUGCAGGGAAGGUCCUGGGUAGAUUUCCUUUUUAAGGUUCCCAGGGUGUGGAUGCC: 0.793
ACACUGAUAGUAUCUCAUGAGUAAUGUGUGUUUUGGGAGAGGGAGGGAUGCUGAUUGAUAUUUCACAUUGUAUGAAAUACCAUGUUUGAAACUCAUAGCAAUAAUGCUAU: 0.626

Series 3
Target: Interferon regulatory factor 7, full length, phosphomimetic (IRF7, Homo sapiens, UniProt Q92985, residues 1-503, S101K/S471D/S472D/S475D/S476D/S477D/S483D/S484D/S487D)
Chain of UniProt Q92985 (whole entry, unmodified, looked up): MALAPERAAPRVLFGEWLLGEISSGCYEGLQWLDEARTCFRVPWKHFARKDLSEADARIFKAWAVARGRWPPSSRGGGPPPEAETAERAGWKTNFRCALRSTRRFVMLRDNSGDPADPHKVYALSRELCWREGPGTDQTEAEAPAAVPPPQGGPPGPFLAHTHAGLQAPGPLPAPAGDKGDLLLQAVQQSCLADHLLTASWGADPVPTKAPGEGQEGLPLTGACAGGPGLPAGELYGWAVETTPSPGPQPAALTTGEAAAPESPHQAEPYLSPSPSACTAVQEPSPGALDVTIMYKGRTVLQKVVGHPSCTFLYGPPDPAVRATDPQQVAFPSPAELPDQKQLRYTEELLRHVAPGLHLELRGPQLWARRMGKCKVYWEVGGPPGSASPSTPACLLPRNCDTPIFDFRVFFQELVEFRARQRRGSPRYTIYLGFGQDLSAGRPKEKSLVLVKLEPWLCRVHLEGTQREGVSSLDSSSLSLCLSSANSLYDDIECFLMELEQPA
Technique: protein-binding microarray
Form: double-stranded DNA, one strand shown
Medium: in vitro
Tested at: 250 nM
Notes: 60-bp whole probe
With: salmon DNA 0.4 mg/ml
Reference: random background probes
Direction: higher = stronger binding
Measurement: log fluorescence
Constant ends, left off below: GCCTAGCAC … GTCTTGATTCGCTTGACGCTGCTG
TCCTCTTTCACTGCTCCCCAAGTGCTA: 1.41 z-score
CAGCCTTTGCCTCATCTTGCAGTGCTA: -0.177 z-score
TTAGGTCTCCCACTGCTTTAGTGCTAG: 0.0249 z-score
TTCGGTCTCCTACTGCTTTAGTGCTAG: 0.0964 z-score
GACGGTTTCCTTTCCCTTACGTGCTAG: 4.71 z-score
TCACTAGTGTTTTTCTCACTGTGCTAG: 0.0347 z-score
GACGGGCTGGGTCTCGGGACGTGCTAG: -1.07 z-score
TTAGGTATCGTCTTTCGGTTAGTGCTA: 1.85 z-score
TTAGGACTGCTCCTCCTTTAGTGCTAG: -0.106 z-score
GTAGGTATCGGACTGGGTTAGTGCTAG: -0.0623 z-score
TCATTTCTCTTTCCTTCACTGTGCTAG: 2.73 z-score
GACGGACGGGGGTTTCGGGACGTGCTA: 2.74 z-score
TTAGGTATCGGGTATCGGATAGTGCTA: 1.21 z-score
TCCCCTCTAGGTTCTCTGAAAGTGCTA: 0.23 z-score
CGCTCCCTTTATTCCACATTGTGCTAG: 1.11 z-score
GACGGACTGGACCTTCGGGACGTGCTA: -0.899 z-score
TTTCTTTTCATTACTGCATTGTGCTAG: 4.52 z-score
TCACATACTAATTTCCAACTGTGCTAG: 0.671 z-score
TCATTTTTTTTTTTTACACTGTGCTAG: 1.2 z-score

Series 4
Target: Fragile X messenger ribonucleoprotein 1, C-terminal low-complexity region (Fmr1, Mus musculus, UniProt P35922)
Technique: RNA Bind-n-Seq
Form: RNA
Medium: in vitro
Tested at: 200 nM
Notes: whole 134-nt RNA, ends assumed
With: 150 mM KCl
Reference: input library
Direction: higher = stronger binding
Measurement: log2 enrichment
Constant ends, left off below: GGGAGUUCUACAGUCCGACGAUC … UGGAAUUCUCGGGUGUCAAGG
UCGGCUACACUGCCCGGAGAAUUCUCAAUGAGGAUGGCAGCCCUAACCUGGACUUCAAGCCUGAAGACCAGCCCCAUUUUGACAUCAAGG: -0.0864
AGUCCUGUGCUACACAUCGUAUGUACCGAAUCGGGUUUUUGGUUUUUGGGGUUUUUGGAAAGUAUUAUGUUACGCCGUUCGGAUCUGCAC: -0.28
UUCCUCAAGUCCUGUGCUACACAUCGUAUGUACCGAAUCGGUGGGUGGUGGAAAGUAUUAUGUUACGCCGUUCGGAUCUGCACUUCCAGC: -0.0417
UGAAAAUUCUCGACUGGCUGCUGAGGUUUACAAAGACAUGCCGGAAACCAGCUUUACUCGAACCAUUUCUAAUCCUGAGGUGGUUAUGAA: -1.53
CACAGACAACACGCACCCACACAGACACAGAGGGAAGGGGUUGGGAUGGGGACAGGGUGCACAGCAGGGCAAAGUAGGACCCCAGCCCCU: 1.14
UUUUACAUUUAUACACAUGUAUUGGCUUCCUUUUACACUAUUAGGCGGUCAAGAAGCAGAUCGAGACGGCGGUCACAUUCUAAGUCUAGG: 0.253
AAGUCCUGUGCUACACAUCGUAUGUACCGAAUCGGGAGGGAAAAAAAGGGAAAGGGAAAGUAUUAUGUUACGCCGUUCGGAUCUGCACUU: 0.485
UCAAGUCCUGUGCUACACAUCGUAUGUACCGAAUCGGUUUGGAAAGGAAAAAGGAAAGUAUUAUGUUACGCCGUUCGGAUCUGCACUUCC: -0.352
ACCAUGCAGGUGGGCAUCUUUGGGAAGUGGGGCAAGGGGGGGAUAGGGAGGGGGGUAGCACUUUGGGAACAGGUGGUCCCAGGUCGUUUC: 0.616
CAAGUCCUGUGCUACACAUCGUAUGUACCGAAUCGGGCCCGGGCCCGGGCCCGGGGAAAGUAUUAUGUUACGCCGUUCGGAUCUGCACUU: -1.17
GCAGGAAGUAAAAACAAAUGGAAAUGCUUCGUAUAGUGGCAGGGGUGGGGGUUGCUAAGGAAAGGGUGGGAUGGGAGUGGGUAAAGAGUU: 0.292
UGGGAGGUGGAUUUUGUUUAUUUUUUUAGCCCAUUUCCAGGGGUGGGAAUUUUUUUUUAAUAUGUGUCAUGAAUAAAGUUGUUUUUGAAA: 0.132
CCUGUGCUACACAUCGUAUGUACCGAAUCGGGUUUUUUUGGUUUUUUUGGUUUUUUUGGGAAAGUAUUAUGUUACGCCGUUCGGAUCUGC: -0.663
AGUCCUGUGCUACACAUCGUAUGUACCGAAUCGGGGUUUUUUUGGGGAGGGGUGGGGAAAGUAUUAUGUUACGCCGUUCGGAUCUGCACU: 0.763

Some of these lines once more (series 3):
GTAGGTATCGGACTGGGTTAGTGCTAG: -0.0623 z-score
TTAGGTATCGTCTTTCGGTTAGTGCTA: 1.85 z-score
TTAGGTCTCCCACTGCTTTAGTGCTAG: 0.0249 z-score
GACGGTTTCCTTTCCCTTACGTGCTAG: 4.71 z-score
TTCGGTCTCCTACTGCTTTAGTGCTAG: 0.0964 z-score
TCCTCTTTCACTGCTCCCCAAGTGCTA: 1.41 z-score
TCATTTCTCTTTCCTTCACTGTGCTAG: 2.73 z-score
GACGGACTGGACCTTCGGGACGTGCTA: -0.899 z-score
GACGGGCTGGGTCTCGGGACGTGCTAG: -1.07 z-score
